Results pooled from the literature.
Parts stem from different laboratories: compare values within a part only.
Sequence of UniProt P14780 (whole entry, unmodified, looked up): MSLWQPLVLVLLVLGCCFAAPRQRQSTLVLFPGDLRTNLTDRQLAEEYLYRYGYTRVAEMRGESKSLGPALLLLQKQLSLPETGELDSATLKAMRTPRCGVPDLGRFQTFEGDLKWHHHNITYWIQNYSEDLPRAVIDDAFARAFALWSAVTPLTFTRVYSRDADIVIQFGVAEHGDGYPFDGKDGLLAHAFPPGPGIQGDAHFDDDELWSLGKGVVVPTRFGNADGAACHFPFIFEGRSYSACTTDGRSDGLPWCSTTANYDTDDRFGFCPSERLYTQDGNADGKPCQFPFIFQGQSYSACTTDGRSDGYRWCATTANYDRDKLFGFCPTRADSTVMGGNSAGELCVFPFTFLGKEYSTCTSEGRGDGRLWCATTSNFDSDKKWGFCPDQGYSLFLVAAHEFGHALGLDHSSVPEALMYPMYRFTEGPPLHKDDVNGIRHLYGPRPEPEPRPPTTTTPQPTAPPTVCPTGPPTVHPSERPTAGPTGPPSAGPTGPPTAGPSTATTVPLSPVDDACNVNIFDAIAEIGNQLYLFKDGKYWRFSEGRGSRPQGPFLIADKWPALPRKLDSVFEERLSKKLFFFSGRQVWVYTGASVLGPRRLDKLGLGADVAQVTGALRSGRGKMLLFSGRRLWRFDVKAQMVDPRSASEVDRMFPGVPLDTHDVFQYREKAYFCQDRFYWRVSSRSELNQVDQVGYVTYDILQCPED

Study 1 — organism: Sarcocystis neurona; read-out: parasite growth; concentration: 10 µM; time: 96 h; baseline: untreated
| SMILES | log2 fold change |
| --- | --- |
| c1ccc2c(c1)Nc1ccccc1S2 | 0.46 |
| O=C(c1ccc(F)cc1)C1CCN(CCn2c(=S)[nH]c3ccccc3c2=O)CC1 | -3.32 |
| OCCN1CCN(CCCN2c3ccccc3Sc3ccc(Cl)cc32)CC1 | -3.51 |
| C[C@H]1[C@H](OC(=O)CCC(=O)O)O[C@@H]2O[C@@]3(C)CC[C@H]4[C@H](C)CC[C@@H]1[C@@]24OO3 | -2.87 |
| CCC1(c2ccc(N)cc2)CCC(=O)NC1=O (stereo not drawn) | 0.36 |

Study 2 — action: inhibitor; concentration: 10 µM; baseline: control
Target: Diamine acetyltransferase 1 (Homo sapiens, UniProt P21673)
Construct (P21673 1-171): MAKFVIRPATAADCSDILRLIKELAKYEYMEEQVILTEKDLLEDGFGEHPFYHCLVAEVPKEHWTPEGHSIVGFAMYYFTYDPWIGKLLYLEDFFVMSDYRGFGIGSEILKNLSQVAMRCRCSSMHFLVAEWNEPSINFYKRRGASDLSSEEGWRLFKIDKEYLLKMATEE
| SMILES | remaining activity |
| --- | --- |
| Oc1cc(O)cc(/C=C/c2ccc(O)cc2O)c1 | 98.1% |
| O=C1c2ccccc2C(=O)c2ccccc21 | 88.5% |
| O=C/C=C/c1ccccc1 | 83.4% |
| COc1ccc(C(=O)O)cc1OC | 91% |

Study 3 — read-out: binding; method: radioligand binding; concentration: 10 µM
Target: Sodium-dependent dopamine transporter (SLC6A3, Homo sapiens, UniProt Q01959)
Sequence of UniProt Q01959 (whole entry, looked up): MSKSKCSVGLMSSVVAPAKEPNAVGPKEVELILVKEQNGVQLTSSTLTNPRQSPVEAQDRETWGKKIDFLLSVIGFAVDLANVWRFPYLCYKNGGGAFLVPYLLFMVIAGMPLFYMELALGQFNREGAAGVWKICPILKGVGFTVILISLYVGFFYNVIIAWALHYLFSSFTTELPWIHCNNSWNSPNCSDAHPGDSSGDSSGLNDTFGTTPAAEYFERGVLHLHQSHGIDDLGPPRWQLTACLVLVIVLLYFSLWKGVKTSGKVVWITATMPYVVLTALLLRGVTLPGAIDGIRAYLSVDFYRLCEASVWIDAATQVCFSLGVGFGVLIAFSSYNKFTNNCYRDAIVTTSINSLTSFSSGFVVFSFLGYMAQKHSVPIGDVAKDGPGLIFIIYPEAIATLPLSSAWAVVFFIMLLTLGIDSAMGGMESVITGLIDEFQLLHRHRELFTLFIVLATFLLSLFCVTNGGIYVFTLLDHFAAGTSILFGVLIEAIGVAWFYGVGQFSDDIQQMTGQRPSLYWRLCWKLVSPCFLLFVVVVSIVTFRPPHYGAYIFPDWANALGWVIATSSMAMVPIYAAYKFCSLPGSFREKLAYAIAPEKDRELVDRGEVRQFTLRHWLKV
| Compound | inhibition [%] |
| --- | --- |
| O=C(Nc1cccnn1)N1CCC(=Cc2cccc(Oc3ccc(C(F)(F)F)cn3)c2)CC1 | -30.3 |
| Cc1cc(C)c(-n2ccn3nc(-c4cccnc4)cc23)cc1NC(=O)c1cc(C#N)cc(S(F)(F)(F)(F)F)c1 | 10.7 |
| O=C(Nc1ccc(-n2nc(-c3cccnc3)cc2C(F)(F)F)cn1)c1ccc(-c2ccccc2)c(F)c1 | 68.2 |
| Cc1c[nH]c2nccc(Oc3c(F)cc(Nc4cc(Cl)nc(N)n4)cc3F)c12 | -16.6 |
| c1ccc(C2CCN(c3cnc4c(N5CCOCC5)nccn34)CC2)cc1 | 85.9 |
| Cc1c(N2CCCC2)nc2ccc(Br)cc2c1C(=O)NC[C@H](CCC(=O)O)c1ccccc1Cl | -12.3 |
| Cc1cc(-n2nc(Cc3cc(F)cc(C(F)(F)F)c3)nc2C)ccc1C(N)=O | 7.33 |
| O=C(Nc1cnc(Oc2ccc(F)cc2)nc1)N1CCc2ncccc2[C@@H]1c1ccc(F)cc1 | -39.3 |
| COCc1nc2cnc3cc(-c4c(C)noc4C)c(OC[C@H]4CCNC4)cc3c2n1[C@H](C)c1ccccc1 | 27.9 |
| CCOC(=O)c1cc2cc(-c3cc(C(=O)NCc4ccc(C(=O)O)cc4)nn3C)ccc2[nH]1 | 2.26 |
| CCOCCn1cc(C(=O)Nc2ccc(-n3nc(-c4cccnc4)cc3C(F)(F)F)cn2)ccc1=O | 82.1 |
| CNC(=O)Nc1ccc2c(c1)[C@]1(CC2)OC(=O)N(CC(=O)N(Cc2ccc(F)cc2)[C@@H](C)C(F)(F)F)C1=O | -6.45 |
| CC(C)CC(=O)N1CCc2nc(-c3ccc(Br)cc3)nc(N(C)Cc3ccccc3)c2C1 | 15.3 |
| CC(=O)N1CCC(c2ccc(C(=O)NC(=N)N)cc2C(F)(F)F)CC1 | 77.9 |
| C[C@@]1(Cc2ccc(C#N)cc2)C(=O)N(c2cc(Cl)cc(Cl)c2)c2ncc(C(=O)NC3(c4nc(C5CCC5)no4)CC3)n21 | -16 |
| O[C@]1(C(F)(F)F)CCCC[C@H]1Nc1ccc(F)cc1 | 56.5 |
| CC1=C(C#N)C(c2ccc3c(c2)c(NC(=O)c2ccccc2C)nn3C)C(C#N)=C(C)N1 | -13.2 |
| Cc1nccc(COC(=O)N2C[C@@H]3[C@@H](CNC(=O)c4ccc5[nH]nnc5c4)[C@@H]3C2)n1 | -17.6 |
| C[C@H](NC(=O)c1cnc2n1[C@](C)(Cc1ccc(C#N)cc1)C(=O)N2c1cc(Cl)c(F)c(Cl)c1)C(=O)NC1(c2ccccn2)CC1 | -14.8 |
| CN1CCN(C(=O)C(C)(C)c2ccc(C(=O)Nc3cn4cc(-c5ccncc5)ccc4n3)cc2)CC1 | 8.33 |
| Cc1nc(N2CC[C@@H](O)C2)ncc1-c1cc(C(F)(F)F)cc2[nH]ncc12 | 75.2 |
| Cc1nc(Cc2cccc(C(F)(F)F)c2)sc1-c1ccc(C(N)=O)nc1 | -18.9 |
| CS(=O)(=O)NCC[C@H](NC(=O)c1cncc2c1cnn2-c1ccc(F)cc1)c1ccnc(S(C)(=O)=O)c1 | 25.3 |
| CC(C)(O)c1cncc(-c2nc3ccc(F)cc3n2C2CC2)c1 | 1.47 |

Study 4 — read-out: enzyme activity; action: inhibitor; concentration: 10 µM
Target: Calcium/calmodulin-dependent protein kinase type II subunit alpha (CAMK2A, Homo sapiens, UniProt Q9UQM7)
Sequence of UniProt Q9UQM7 (whole entry, looked up): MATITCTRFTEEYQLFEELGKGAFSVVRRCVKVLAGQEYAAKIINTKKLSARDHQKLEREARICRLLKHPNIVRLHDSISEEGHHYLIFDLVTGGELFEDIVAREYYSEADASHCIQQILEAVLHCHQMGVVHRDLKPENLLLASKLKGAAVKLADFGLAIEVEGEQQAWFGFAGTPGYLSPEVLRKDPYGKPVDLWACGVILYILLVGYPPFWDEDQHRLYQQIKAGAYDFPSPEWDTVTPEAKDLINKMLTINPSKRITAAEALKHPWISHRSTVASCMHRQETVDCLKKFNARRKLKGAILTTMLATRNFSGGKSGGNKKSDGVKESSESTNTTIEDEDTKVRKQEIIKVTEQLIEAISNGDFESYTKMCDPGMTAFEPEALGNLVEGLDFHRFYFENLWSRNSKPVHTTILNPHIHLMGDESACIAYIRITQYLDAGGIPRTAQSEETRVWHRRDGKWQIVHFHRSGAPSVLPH
| Structure (SMILES) | inhibition [%] |
| --- | --- |
| O=c1[nH]c2ccccc2n1CCCN1CCC(n2c(=O)[nH]c3cc(Cl)ccc32)CC1 | 1 |
| OCC1=C[C@H](N[C@H]2C[C@H](CO)[C@@H](O[C@@H]3O[C@H](CO)[C@@H](O)[C@H](O)[C@H]3O)[C@H](O)[C@H]2O)[C@H](O)[C@@H](O)[C@@H]1O | 5 |
| Cn1cnc(CCN)c1 | -14 |
| C[C@H]1CCC[C@@H](O)CCC/C=C/c2cc(O)cc(O)c2C(=O)O1 | -20 |
| C[C@]12CCC(=O)C=C1CC[C@@H]1[C@@H]2[C@@H](O)C[C@]2(C)C(=O)CC[C@@H]12 | 2 |

Study 5 — cell line: HEK-293T/ACE2; time: 17.5 h
| Compound | CC50 [µM] |
| --- | --- |
| CC(CN1c2ccccc2Sc2ccccc21)N(C)C (stereo not drawn) | 67 |
| CCSc1ccc2c(c1)N(CCCN1CCN(C)CC1)c1ccccc1S2 | 34.4 |
| CN1CCN(CCCN2c3ccccc3Sc3ccc(S(=O)(=O)N(C)C)cc32)CC1 | 51.7 |
| CN1CCN(CCCN2c3ccccc3Sc3ccc(C(F)(F)F)cc32)CC1 | 24.6 |
| CN1CCCC(CN2c3ccccc3Sc3ccccc32)C1 (stereo not drawn) | 57 |
| CN1CCN(CCCN2c3ccccc3Sc3ccccc32)CC1 | 71 |
| CC(=O)c1ccc2c(c1)N(CCCN(C)C)c1ccccc1S2 | 77.1 |
| CN1CC2c3ccccc3Oc3ccc(Cl)cc3C2C1 (stereo not drawn) | 42.5 |

Study 6 — cell line: mouse MPNST tumor cells; method: high-content immunofluorescence imaging; measured: nuclear SOX9; concentration: 10 µM; time: 12 h; notes: mean of 2 replicates; baseline: DMSO control; direction: higher = more nuclear SOX9
| SMILES | nuclear SOX9 intensity |
| --- | --- |
| COc1cc([C@@H]2c3cc4c(cc3[C@H](O)[C@H]3COC(=O)[C@H]23)OCO4)cc(OC)c1OC | 231 % of DMSO |
| CCC1(C)CC(=O)NC(=O)C1 | 103 % of DMSO |
| CCCCCC[C@H]1C(=O)O[C@H](C)[C@H](NC(=O)c2cccc(NC=O)c2O)C(=O)O[C@@H](C)[C@@H]1OC(=O)CC(C)C | 99.4 % of DMSO |
| Cc1ncc(CN2CC=C(c3ccccc3)CC2)c(N)n1 | 91.8 % of DMSO |

Other studies, line by line
| SMILES | target | read-out | action | concentration | quantity | value |
| --- | --- | --- | --- | --- | --- | --- |
| COc1ccc(S(=O)(=O)N(CC(=O)NO)CC(C)C)cc1 | Matrix metalloproteinase-9 (MMP9, Homo sapiens, UniProt P14780, Q279R) | enzyme activity | inhibitor | 10 nM | inhibition | 74% |

Excerpt of the above (study 3):
| Compound | inhibition [%] |
| --- | --- |
| CCOCCn1cc(C(=O)Nc2ccc(-n3nc(-c4cccnc4)cc3C(F)(F)F)cn2)ccc1=O | 82.1 |
| CNC(=O)Nc1ccc2c(c1)[C@]1(CC2)OC(=O)N(CC(=O)N(Cc2ccc(F)cc2)[C@@H](C)C(F)(F)F)C1=O | -6.45 |
| CC(C)CC(=O)N1CCc2nc(-c3ccc(Br)cc3)nc(N(C)Cc3ccccc3)c2C1 | 15.3 |
| CC(=O)N1CCC(c2ccc(C(=O)NC(=N)N)cc2C(F)(F)F)CC1 | 77.9 |
| C[C@@]1(Cc2ccc(C#N)cc2)C(=O)N(c2cc(Cl)cc(Cl)c2)c2ncc(C(=O)NC3(c4nc(C5CCC5)no4)CC3)n21 | -16 |
| O[C@]1(C(F)(F)F)CCCC[C@H]1Nc1ccc(F)cc1 | 56.5 |
